Assay results collected from several papers.
Each numbered part is a random draw from the data of one study; scales do not carry over between parts. Changes are numbered by the printed parent chain.

Study 1
Target: Histone acetyltransferase KAT6A, both winged helices, GST fusion (KAT6A, Homo sapiens, UniProt Q92794, residues 1-181)
Method: protein binding microarray
Form: double-stranded DNA, one strand shown
Medium: in vitro
Concentration: not given
Setting: 8-mer, flanks averaged, mean of 2 arrays, mostly near background
Relative to: not given
Reading: higher = stronger binding
Measurement: E-score
Residues (chain): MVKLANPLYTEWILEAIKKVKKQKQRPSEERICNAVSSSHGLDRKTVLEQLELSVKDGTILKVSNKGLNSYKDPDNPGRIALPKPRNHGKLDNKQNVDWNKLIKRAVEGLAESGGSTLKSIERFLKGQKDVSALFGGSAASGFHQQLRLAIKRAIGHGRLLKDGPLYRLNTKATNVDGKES
Oligonucleotide = CTCCTCCC; result = -0.188
Oligonucleotide = CTCCCGGC; result = 0.232
Oligonucleotide = CGCCAAAA; result = 0.219
Oligonucleotide = ACTATTTG; result = -0.0999
Oligonucleotide = AAGGCGTC; result = 0.114
Oligonucleotide = ACCGGTCA; result = 0.166
Oligonucleotide = AACCGTTG; result = 0.037
Oligonucleotide = CCCGCCAG; result = 0.148

Study 2
Target: Probable WRKY transcription factor 50, DNA-binding domain (WRKY50, Arabidopsis thaliana, UniProt Q8VWQ5, residues 99-173)
Method: DNA-protein interaction ELISA
Form: double-stranded DNA, one strand shown
Medium: in vitro, bacterial lysate
Concentration: not given
Setting: whole dsDNA probe, crude lysate protein
Relative to: highest signal in screen
Reading: higher = stronger binding
Measurement: relative absorbance
Construct (chain): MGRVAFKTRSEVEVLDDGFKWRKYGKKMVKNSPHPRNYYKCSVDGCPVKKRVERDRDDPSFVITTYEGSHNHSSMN
Oligonucleotide = AAAAAATCATCTCTATGTTATTGTTGAAAA; result = 12.7 % of maximum
Oligonucleotide = AAAAAACTACAACCTGCGCGGTGGTCAAAA; result = 16.7 % of maximum
Oligonucleotide = AAAAAATTGCATTCCACCCTTAGGTTAAAA; result = 44.1 % of maximum
Oligonucleotide = AAAAAATGCCCTTTTTATCTTTATGTAAAA; result = 21.3 % of maximum
Oligonucleotide = AAAAAAACTATAGTCTTTGTCATGATAAAA; result = 18.1 % of maximum
Oligonucleotide = AAAAAAACCCGTGCCTGCCTATTGCAAAAA; result = 16 % of maximum
Oligonucleotide = AAAAAAGTTCGGGGCTTGGTTTGGAAAAAA; result = 37.1 % of maximum
Oligonucleotide = AAAAAATCTAGGGGTACCTATTTGGCAAAA; result = 12.8 % of maximum

Single results of other studies
P1: PafA, mature enzyme, eGFP fusion (Elizabethkingia meningoseptica, UniProt Q9KJX5); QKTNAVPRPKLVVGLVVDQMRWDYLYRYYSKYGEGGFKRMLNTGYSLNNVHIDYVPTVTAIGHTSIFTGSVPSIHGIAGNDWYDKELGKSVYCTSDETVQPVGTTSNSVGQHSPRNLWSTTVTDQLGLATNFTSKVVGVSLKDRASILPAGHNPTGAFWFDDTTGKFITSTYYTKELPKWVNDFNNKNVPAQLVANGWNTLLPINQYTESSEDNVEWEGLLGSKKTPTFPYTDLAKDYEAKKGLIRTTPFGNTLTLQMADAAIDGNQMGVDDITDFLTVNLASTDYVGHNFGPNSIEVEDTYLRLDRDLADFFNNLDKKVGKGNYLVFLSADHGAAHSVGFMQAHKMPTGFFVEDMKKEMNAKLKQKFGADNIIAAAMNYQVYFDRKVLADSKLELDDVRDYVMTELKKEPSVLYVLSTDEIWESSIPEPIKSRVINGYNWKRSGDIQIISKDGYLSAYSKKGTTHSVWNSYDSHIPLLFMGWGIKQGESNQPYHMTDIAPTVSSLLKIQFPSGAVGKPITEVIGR
Substance = P1 R39V; target = inorganic phosphate, free oxyanion; assay = microfluidic competitive inhibition; test system = in vitro, cell-free expressed; setting = not given, derived from inhibition constants, unchanged parent 615000 nM; scale = lower = stronger binding; measurement = phosphate dissociation constant; result = 493 µM
Substance = PhoQ, residues 284 288 289 292 302 303 SLANIV; target = PhoP, residues 12 14 15 18 19 TPWLV (Escherichia coli, UniProt P23836); assay = Sort-seq, measured: YFP reporter; test system = E. coli; setting = PhoQ-PhoP variant library, with: 10 µM Mg2+; scale = relative to: high Mg2+ state, higher = stronger signaling; measurement = fold induction; result = 16

Some of these lines once more (study 2):
Oligonucleotide = AAAAAAACCCGTGCCTGCCTATTGCAAAAA; result = 16 % of maximum
Oligonucleotide = AAAAAAGTTCGGGGCTTGGTTTGGAAAAAA; result = 37.1 % of maximum
